Measurements of several laboratories.
A part holds a random share of what one study measured. Positions count from the first letter of the parent shown.

Set 1 — method: protein-binding microarray; molecule type: double-stranded DNA, one strand shown; sample: in vitro; concentration: 2200 nM top; setting: 60-bp whole probe; together with: salmon DNA 0.4 mg/ml; baseline: random background probes; reading: higher = stronger binding; quantity: fitted relative affinity; constant ends, left off below: GCCTAGCAC … GTCTTGATTCGCTTGACGCTGCTG
Target: Interferon regulatory factor 7, full length, phosphomimetic (IRF7, Homo sapiens, UniProt Q92985, residues 1-503, S471D/S472D/S475D/S476D/S477D/S483D/S484D/S487D)
Chain of UniProt Q92985 (whole entry, unmodified, looked up): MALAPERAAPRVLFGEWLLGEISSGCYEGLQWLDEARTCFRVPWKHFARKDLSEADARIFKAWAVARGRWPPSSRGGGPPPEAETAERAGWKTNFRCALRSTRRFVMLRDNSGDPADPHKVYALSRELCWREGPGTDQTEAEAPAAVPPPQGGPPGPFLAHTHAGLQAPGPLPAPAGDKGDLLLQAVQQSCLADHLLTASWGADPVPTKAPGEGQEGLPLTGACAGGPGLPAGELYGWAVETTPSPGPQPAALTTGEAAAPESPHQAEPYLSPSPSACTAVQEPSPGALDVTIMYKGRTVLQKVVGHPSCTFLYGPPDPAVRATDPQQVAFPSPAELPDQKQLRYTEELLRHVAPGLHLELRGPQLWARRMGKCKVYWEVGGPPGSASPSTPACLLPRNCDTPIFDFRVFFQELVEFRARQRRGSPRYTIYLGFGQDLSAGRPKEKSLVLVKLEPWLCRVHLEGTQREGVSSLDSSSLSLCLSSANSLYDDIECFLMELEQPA
Sequence = TTAGGTTTCGGTTTCGTTTAGTGCTAG; result = 16.6 z-score
Sequence = TCAGGTTTCGACTATCGGTTAGTGCTA; result = 3.83 z-score
Sequence = CCACTGCAAAAACATCCTGGGTGCTAG; result = 0.479 z-score
Sequence = TCATTTTTTTTTTTTACACTGTGCTAG; result = 2.26 z-score
Sequence = GTAGGTTTCGGTATCGGTTAGTGCTAG; result = 7.46 z-score
Sequence = GACGGTATCGCCACTGGGGACGTGCTA; result = -0.46 z-score
Sequence = TCAATTTTCTGAATGTCACTGTGCTAG; result = 2.66 z-score
Sequence = TTAGATTTCAGTTTCGGTTAGTGCTAG; result = 9.78 z-score
Sequence = TTAGAGTTCAGTTTCGATTAGTGCTAG; result = 5.92 z-score
Sequence = GACGCTTCCAGTTTCGAGACGTGCTAG; result = 4.42 z-score
Sequence = TTAGATTTCCGGTTTCGATTAGTGCTA; result = 6.67 z-score
Sequence = GACATCCCCAGTCTCATATTGTGCTAG; result = 1.07 z-score
Sequence = GACGGACTGGGACTGGGGACGTGCTAG; result = -0.959 z-score
Sequence = TTAGGACTGGACGTTCGGTTAGTGCTA; result = 0.00761 z-score
Sequence = GACTGACTGGGTTTCGGGACGTGCTAG; result = 1.75 z-score
Sequence = GACGGACTGGGTCTCGGCACGTGCTAG; result = -0.756 z-score
Sequence = ATAAAAATCTTTGTTGGAGGGGTGCTA; result = -0.679 z-score
Sequence = TCAGCTCTGTGCTTTCCTACTGTGCTA; result = 1.33 z-score
Sequence = GACGGTTGCGGACTGGGGACGTGCTAG; result = -0.41 z-score

Set 2 — method: DHFR PCA, deep sequencing; sample: yeast; together with: (+)-ABA 0.39 µM; baseline: wild-type fitted maximum; reading: higher = stronger binding; quantity: relative binding score
Target: ABI1, truncated, D143A, DHFR fusion (Arabidopsis thaliana)
Setting: methotrexate growth selection, single substitutions
Starting sequence: PYL1, truncated, DHFR fusion (Arabidopsis thaliana); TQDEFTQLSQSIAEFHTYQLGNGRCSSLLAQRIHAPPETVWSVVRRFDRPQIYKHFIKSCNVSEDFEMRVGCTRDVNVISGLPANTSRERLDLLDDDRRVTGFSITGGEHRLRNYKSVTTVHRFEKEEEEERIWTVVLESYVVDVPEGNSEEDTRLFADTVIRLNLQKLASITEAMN
Substitution = F103T; result = -9.65%
Substitution = G21V; result = 42.1%
Substitution = D159H; result = -26.8%
Substitution = L28Y; result = -2.14%
Substitution = N149M; result = 51.7%
Substitution = E127A; result = 54.7%
Substitution = R45S; result = -4.57%
Substitution = R132H; result = 49.3%
Substitution = R98Y; result = 0.717%

Set 3 — method: protein-binding microarray; molecule type: double-stranded DNA, one strand shown; sample: in vitro; concentration: 0.8 µM; setting: whole 60-bp probe, no competitor; reading: higher = stronger binding; quantity: fluorescence intensity; constant ends, left off below: … GTCTTGATTCGCTTGACGCTGCTG
Target: Centromere-binding protein 1, full length, N-terminal tag (CBF1, Saccharomyces cerevisiae, UniProt P17106, residues 1-351)
Chain of UniProt P17106 (whole entry, looked up): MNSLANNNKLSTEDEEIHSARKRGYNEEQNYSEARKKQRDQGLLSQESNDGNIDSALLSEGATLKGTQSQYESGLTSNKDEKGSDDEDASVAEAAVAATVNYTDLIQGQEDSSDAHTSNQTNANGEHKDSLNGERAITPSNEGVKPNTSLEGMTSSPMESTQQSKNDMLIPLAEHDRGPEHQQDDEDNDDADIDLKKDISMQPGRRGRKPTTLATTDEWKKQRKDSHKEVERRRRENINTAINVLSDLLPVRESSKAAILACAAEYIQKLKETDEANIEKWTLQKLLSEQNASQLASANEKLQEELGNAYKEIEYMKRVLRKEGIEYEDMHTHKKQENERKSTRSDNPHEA
Sequence = GAAAGCAATTCACACGTGAATACGTACAATATCTAG; result = 2040 a.u.
Sequence = GAAGGTTCACTCCTACAGGTGATTCCTTCGAGATAG; result = 554 a.u.
Sequence = CTATGATTTCCCAGTCACGGATTCCTTTTGAGATTC; result = 800 a.u.
Sequence = GAATTATTCATCTTGTACGTGATAATGTTTCATTAG; result = 604 a.u.
Sequence = GAAAAGGGACGTCGTAATCACGGTTACTAAGTATAG; result = 535 a.u.
Sequence = TGTACGAAGCTATTCAACGTGGTTATAGTAGTTAGG; result = 568 a.u.
Sequence = GAATATGAGTACCGTCACGTTTCTTGTTGAAGATAG; result = 1480 a.u.
Sequence = GAATTAGGCTTTGAACGCGTGCTATGGAAAAAATAG; result = 708 a.u.
Sequence = TGTACGAAGCTATATCAGATGGTTATAGTAGTTAGG; result = 594 a.u.
Sequence = CTAATTTGGCATGGTGTGGTGATGTCTCTTTTCTTC; result = 541 a.u.
Sequence = CTAGTGGCTTAGCATCTCGTGAGGATATGGAAGTTC; result = 615 a.u.
Sequence = CTAATACGAATAGGTGCCGTGATGAAGAAAAAATTC; result = 644 a.u.
Sequence = TGTACGAAGCTATCTACCGTGCCTATAGTAGTTAGG; result = 497 a.u.
Sequence = CTACTGCTGCAGAATTACGTGACATTTCTCAGTTTC; result = 600 a.u.

Set 4 — target: CCND3, cyclin fold, Cln2 fusion (human); method: yeast growth competition, sequencing; sample: yeast; setting: weak parent motif; baseline: not given; reading: higher = stronger binding; quantity: normalised enrichment score
Starting sequence: SCAPER docking peptide (human); SNARRSLNFGGST; partner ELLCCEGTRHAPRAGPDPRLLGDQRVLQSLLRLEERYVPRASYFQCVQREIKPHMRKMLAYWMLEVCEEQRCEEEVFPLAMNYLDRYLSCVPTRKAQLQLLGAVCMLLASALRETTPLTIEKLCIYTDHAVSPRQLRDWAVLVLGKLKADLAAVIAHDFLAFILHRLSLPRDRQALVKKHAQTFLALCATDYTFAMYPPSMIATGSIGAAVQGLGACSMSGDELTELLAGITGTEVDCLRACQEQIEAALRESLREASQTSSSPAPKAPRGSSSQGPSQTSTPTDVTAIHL
Substitution = SVARRSLNFGGST [N2V]; result = 0.205
Substitution = SNRRRSLNFGGST [A3R]; result = 0.0404
Substitution = SNARKSLNFGGST [R5K]; result = -0.183
Substitution = GNARRSLNFGGST [S1G]; result = 0.101
Substitution = SNANRSLNFGGST [R4N]; result = 0.121
Substitution = SNARRSLNFGGNT [S12N]; result = 0.236
Substitution = SNARRSLNFGGSH [T13H]; result = 0.0644
Substitution = SAARRSLNFGGST [N2A]; result = 0.198
Substitution = SMARRSLNFGGST [N2M]; result = 0.0394
Substitution = SNARRLLNFGGST [S6L]; result = 0.0781
Substitution = SNARRSLNWGGST [F9W]; result = 0.2
Substitution = SNARRSLNGGGST [F9G]; result = 0.0723
Substitution = SNARRSWNFGGST [L7W]; result = 0.0339
Substitution = SNARRSLNFFGST [G10F]; result = 0.125

Set 5 — method: universal PBM; molecule type: double-stranded DNA, one strand shown; sample: in vitro; concentration: 600 nM; reading: higher = stronger binding; quantity: E-score
Target: Sal-like protein 4, full length isoform A (SALL4, Homo sapiens, UniProt Q9UJQ4, residues 1-1053)
Chain of UniProt Q9UJQ4 (whole entry, looked up): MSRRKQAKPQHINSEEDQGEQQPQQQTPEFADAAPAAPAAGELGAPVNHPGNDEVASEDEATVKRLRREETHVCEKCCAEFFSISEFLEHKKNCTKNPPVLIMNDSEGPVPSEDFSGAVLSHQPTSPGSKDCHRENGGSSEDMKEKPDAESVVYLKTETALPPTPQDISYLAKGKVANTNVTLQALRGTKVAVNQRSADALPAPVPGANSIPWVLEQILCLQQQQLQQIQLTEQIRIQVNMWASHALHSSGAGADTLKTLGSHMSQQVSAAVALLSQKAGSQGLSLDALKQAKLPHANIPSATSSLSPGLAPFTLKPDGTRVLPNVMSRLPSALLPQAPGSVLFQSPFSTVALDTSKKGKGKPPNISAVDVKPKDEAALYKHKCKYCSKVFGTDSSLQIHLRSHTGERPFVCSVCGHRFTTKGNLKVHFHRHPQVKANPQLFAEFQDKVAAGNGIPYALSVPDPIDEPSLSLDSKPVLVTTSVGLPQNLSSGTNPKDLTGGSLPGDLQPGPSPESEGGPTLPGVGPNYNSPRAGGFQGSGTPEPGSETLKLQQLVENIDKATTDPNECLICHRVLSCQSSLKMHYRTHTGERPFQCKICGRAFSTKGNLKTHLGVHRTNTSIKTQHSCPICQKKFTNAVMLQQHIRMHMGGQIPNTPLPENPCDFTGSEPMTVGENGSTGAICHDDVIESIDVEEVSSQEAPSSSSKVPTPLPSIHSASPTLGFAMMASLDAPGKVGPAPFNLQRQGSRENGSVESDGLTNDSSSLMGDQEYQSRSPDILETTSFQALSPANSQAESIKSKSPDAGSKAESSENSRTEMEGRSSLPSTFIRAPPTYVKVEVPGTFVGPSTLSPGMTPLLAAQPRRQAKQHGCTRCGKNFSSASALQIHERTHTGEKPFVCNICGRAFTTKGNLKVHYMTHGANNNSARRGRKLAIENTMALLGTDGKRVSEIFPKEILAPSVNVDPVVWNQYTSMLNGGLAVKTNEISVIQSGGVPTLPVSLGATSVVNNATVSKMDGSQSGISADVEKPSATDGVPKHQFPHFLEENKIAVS
Setting: 8-mer, flanks averaged, mean of replicates
Sequence = CAGGCGGA; result = -0.0785
Sequence = AACACTCC; result = 0.0865
Sequence = CCGAGGGA; result = -0.364
Sequence = CACCATCA; result = 0.00741
Sequence = GAGAGAGA; result = -0.0723
Sequence = CCAGGATC; result = -0.218
Sequence = CTGGCGTA; result = -0.147
Sequence = ATCACGAC; result = 0.00809
Sequence = CTGTTAAA; result = 0.141
Sequence = AGGGGCCA; result = -0.362
Sequence = GCTACTTA; result = 0.0555
Sequence = ACGGGTAG; result = -0.144
Sequence = GACTCCCC; result = -0.288
Sequence = CGACCAAA; result = -0.0602
Sequence = CAGAGCGA; result = -0.126
Sequence = AGTAGATC; result = 0.11
Sequence = CTGGGAAA; result = -0.0408
Sequence = ACAAGGGG; result = -0.147
Sequence = TGACTAAA; result = 0.174
Sequence = ACCCAGAT; result = -0.09
Sequence = AGGTAGAT; result = -0.00572
Sequence = CGCCAGCA; result = -0.269
Sequence = ACAAAATA; result = 0.259
Sequence = CACTAGGA; result = -0.201
Sequence = GGTTACCA; result = -0.059

Excerpt of the above (set 5):
Sequence = CAGAGCGA; result = -0.126
Sequence = GCTACTTA; result = 0.0555
Sequence = CCGAGGGA; result = -0.364
Sequence = CACTAGGA; result = -0.201
Sequence = ACAAAATA; result = 0.259
Sequence = CGACCAAA; result = -0.0602
Sequence = ACGGGTAG; result = -0.144
Sequence = AGGTAGAT; result = -0.00572
Sequence = CCAGGATC; result = -0.218
